Results from different studies.
Compare with care: the assays were run in different laboratories. Several values in a cell are separate wells, animals, samples, runs or records. ± gives the spread as reported.

SMILES	tested on	assay	test system	setting	scale	measurement	value
CCOC(=O)c1ccc(NC(=O)C(C#N)=C2C(=O)c3ccccc3C2=O)cc1	HepG2	cell growth or viability, MTT		100 µM, 24 h		viability	26.5%
COc1cc(N2CCN(C(=O)CN)CC2)ccc1Nc1ncc(Cl)c(Nc2ccccc2P(C)(C)=O)n1	NCI-H3122	CCK-8		100 nM, 48 h		viability	39%
O=C(C[Se]C(=O)c1cccnc1Nc1cccc(C(F)(F)F)c1)Nc1cccc(C(F)(F)F)c1	NCI60 leukaemia subpanel	NCI60 five-dose screen				GI50	1.78 µM
COc1cc(N(C)CCN(C)C)c(NC(=O)/C=C/c2ccc(Cl)cc2)cc1Nc1nccc(-c2cn(C)c3ccccc23)n1	NCI-H1975	cell growth or viability, MTT		0.5 µM, 72 h		inhibition	70.2%
O=C(C[Se]C(=O)c1cc2ccccc2o1)Nc1cccc(C(F)(F)F)c1	NCI60 melanoma subpanel	total growth inhibition, inhibitor		five-dose		mean TGI	3.34 µM
CCN(CC)CC(=O)Nc1cccc(-n2cc(-c3ccc4ccc(-c5cn(-c6cccc(NC(=O)CN(CC)CC)c6)nn5)cc4c3)nn2)c1	RCC4	PCR angiogenesis array, refers to: CXCL9		5 x IC50, 6 h, normoxia	relative to: untreated	fold regulation	-1.1
Nc1ncc(-c2cc(-c3cnn(CC(F)(F)F)c3)ncc2F)nc1C(=O)NC1CNCC(F)C1 (centres unmarked)	MYO3A	KINOMEscan		1 µM	relative to: DMSO control	remaining binding	100%
CC(=O)Nc1ccnc(N2Cc3cnn(Cc4ccc(F)cc4)c3C2)n1	HEK293 expressing GluA1 and GluA2	glutamate excitotoxic cell death, CellTox Green		together with: glutamate		IC50	0.04 µM
COc1cc(N(C)CCN(C)C)c(NC(=O)/C=C/c2ccc(C(C)=O)cc2)cc1Nc1nccc(-c2cn(C)c3ccccc23)n1	NCI-H1975	cell growth or viability, MTT		0.5 µM, 72 h		inhibition	69%
COC1CN([C@H]2CC[C@H]([C@@]3(C)Oc4c(Cl)cc(C(=O)NCc5c(SC)cc(C)[nH]c5=O)c(C)c4O3)CC2)C1		RNA-seq, refers to: LRRC2 mouse homolog	mouse, HT-1376 xenograft, whole blood	dose not given	relative to: vehicle	log2 fold change	2.52
COc1cccc(OC)c1-c1cc(C(=O)NC2(C(=O)O)C3CC4CC(C3)CC2C4)nn1-c1ccc(C(=O)N(C)CCOCCN(C)C(=O)[C@H](CCCCNC(=O)[C@H](CC(C)C)NC(=O)C2OC2C(=O)O)NC(=O)CN2CCN(CC(=O)[O-])CCN(CC(=O)[O-])CCN(CC(=O)[O-])CC2)cc1C(C)C.[177Lu+3] (mixture of isomers)	HT-29	SDS-PAGE autoradiography		concentration not given, 4 h	relative to: radioactive signal	adduct formation	49.8%
CN1CCCNC(=O)c2cccc(c2)C(=O)NCCCN(C)CCCNc2cccc3c2C(=O)c2cccc(c2C3=O)NCCC1	SAS	RNA-Seq, refers to: CCDC51 mRNA		1 µM, 6 h	relative to: untreated cells	log2 fold change	0.79
N#Cc1cccc(/C=C/C(=O)c2ccc(O)cc2)c1	U-87 MG	refers to: HSPA6		concentration not given	relative to: untreated	fold change	876
COc1cc(N(C)CCN(C)C)c(NC(=O)/C=C/c2cccc(-c3ccccc3)c2)cc1Nc1nccc(-c2cn(C)c3ccccc23)n1	NCI-H1975	cell growth or viability, MTT		0.5 µM, 72 h		inhibition	65.5%
O=C(C[Se]C(=O)C12CC3CC(CC(C3)C1)C2)Nc1cccc(C(F)(F)F)c1	NCI60 melanoma subpanel	cell growth		10 µM, 48 h, one-dose		mean growth percent	-49.7%
O=C1CCCC2=C1C(c1c[nH]c3ccccc13)c1cc(Br)ccc1O2 (centres unmarked)	3T3-L1 preadipocytes	adipogenesis, Oil Red O staining		IC20, 14 days		mean lipid content	0.616 OD492
COc1cc(/C=C/C(=O)/C=C(O)/C=C/c2ccc(OCC(=O)N3CCOCCOCCOCCOCCOCC3)c(OC)c2)ccc1OCC(=O)N1CCOCCOCCOCCOCCOCC1	HCT-15	cell growth or viability, SRB		25 µM		inhibition	99.4%
COc1ccc2c(c1)OC1=C(C(=O)CCC1)C2c1c[nH]c2ccccc12 (centres unmarked)	3T3-L1 preadipocytes	adipogenesis, Oil Red O staining		IC20, 14 days, single replicate		lipid content	0.501 OD492
CC(C)c1ccc(N(C)c2ccc3c(c2)OCC[C@H]3CNc2cnccc2C(=O)O)cc1	HS852T	cell viability, CellTiter-Glo	skin	7 days		IC50	≥ 10 µM
COc1ccccc1-c1ccncc1C(=O)Nc1nnc(OCc2ccc(Cl)cc2)s1	DLD-1 BRCA2-/-			0.125 µM, mean of replicates		colony count	46 and 39.5 and 38
O=C(C[Se]C(=O)c1ccc2ccccc2c1)Nc1cccc(C(F)(F)F)c1	NCI60 leukaemia subpanel	NCI60 five-dose screen				mean TGI	4.16 µM
COc1ccc(NC(=O)c2c(Nc3ccccc3)sc(C(=O)N/N=C/c3ccc(OC)c(OC)c3)c2NC(C)=O)cc1	HepG2	cell growth or viability, SRB		10 µM, 48 h		viability	53.2%

SMILES	tested on	assay	test system	setting	scale	measurement	value
CC(C)(C)c1nc(-c2cccc(NS(=O)(=O)c3c(F)cccc3F)c2F)c(-c2ccnc(N)n2)s1.Cc1[nH]c2ccccc2c1CCNCc1ccc(/C=C/C(=O)NO)cc1	A2780/CP	annexin V/PI flow cytometry		concentration not given, 48 h	relative to: control subtracted	early apoptotic cells	39.9 ± 5.2%
C=CC(=O)Nc1cc(Nc2nccc(-c3c(-c4ccc5c(c4)OCCO5)n(C)c4ccccc34)n2)c(OC)cc1N(C)CCN(C)C	NCI-H1975	cell growth or viability, MTT		0.5 µM, 72 h		inhibition	68.3%
CCN(C(=O)c1cc(F)ccc1Oc1nncnc1N1CCC2(C1)CN([C@H](CCCN(C)CCOC)C(C)C)C2)C(C)C	SK-BR-3	cell growth or viability		72 h		GI50	> 10 µM
Cn1ncc2cc(-c3cncc(Cl)c3N3CCC4(CCNC4=O)CC3)ccc21	LS174T	gene expression, microarray, refers to: CMBL mRNA		concentration not given, 4 h	relative to: untreated cells	log2 fold change	2.85
Cc1cc(Cl)cc(-c2ccnc3cc(CN4C(=O)C5C(C4=O)C5(C)C)sc23)c1C[C@@H]1CNCCO1 (some centres unmarked)	CHP-212 parental (wild-type USP7)	PI flow cytometry		0.3 µM, 24 h		cells in G1 phase	70.4% and 68.6% and 64.1%
C=CC(=O)N1[C@H](c2ccc3c(c2)OCO3)c2[nH]c3ccccc3c2C[C@@H]1C(=O)NC1CC1	rat DRG neurons			0.01372 µM, 48 h, together with: vincristine 40 nM		mean neuron degeneration	78.4%
O=C(C[Se]C(=O)c1ccccc1Nc1cccc(C(F)(F)F)c1)Nc1cccc(C(F)(F)F)c1	NCI60 leukaemia subpanel	NCI60 five-dose screen				GI50	1.69 µM
COc1cc(N(C)CCN(C)C)c(NC(=O)/C=C/c2cccc3ccccc23)cc1Nc1nccc(-c2cn(C)c3ccccc23)n1	NCI-H1975	cell growth or viability, MTT		0.5 µM, 72 h		inhibition	55.4%
COC(=O)c1cc(NC2=NC(=O)C(=Cc3ccc(N(C)C)cc3)S2)ccc1OC(C)=O	MCF7	GC-MS, refers to: Serine		1 µM	relative to: DMSO	metabolite level	-0.9 fold change
O=C(C[Se]C(=O)c1cc2ccccc2[nH]1)Nc1cccc(C(F)(F)F)c1	NCI60 leukaemia subpanel	NCI60 five-dose screen				GI50	1.5 µM
COc1ccccc1-c1ccncc1C(=O)Nc1ccc(OCc2ccc(Cl)cc2)nn1	DLD-1 parental (BRCA2 WT)			20 µM, single run	relative to: untreated	colony survival	100% and 92.6%
Cc1ccc(-n2cc(CSc3nc4ccccc4n3Cc3cn(-c4ccc(C)cc4)nn3)nn2)cc1	Caco-2	MTT		15.6 ppm		cytotoxicity	58.9%
Cc1c(Cl)cccc1Nc1ccccc1C(=O)[Se]CC(=O)Nc1cccc(C(F)(F)F)c1	NCI60 melanoma subpanel	total growth inhibition, inhibitor		five-dose		mean TGI	3.05 µM
CNS(=O)(=O)Nc1nccc(Cc2c(C)c3ccc(Oc4ncccc4F)cc3oc2=O)c1F	HCC70	cell viability		7 days		IC50	> 1 µM
Cc1ncsc1-c1ccc(C(C)NC(=O)C2CC(O)CN2C(=O)C(NC(=O)CCCCCCCCCCN2CCCC(Nc3ncc(Cl)c(Nc4ccccc4S(=O)(=O)C(C)C)n3)C2)C(C)(C)C)cc1 (centres unmarked)	22Rv1	RNA-seq, refers to: TMOD2 mRNA		concentration not given	relative to: DMSO	log2 fold change	-1.2
C=C(NC(=O)c1csc(-c2ccc(NC(=O)CCCCCBr)cc2)n1)C(=O)NC(=C)C(=O)OC	H-MESO-1	cell viability, crystal violet		6 h exposure, 48 h total		EC50	0.96 µM
C=CC(=O)Nc1cccc(Cn2ncc3cnc(Nc4cnn(CCOC)c4)nc32)c1	CAMK1D human	binding, KINOMEscan		100 nM	lower = stronger binding	percent of control	100%
Nc1c(S(=O)(=O)O)cc(Nc2cccc(S(N)(=O)=O)c2)c2c1C(=O)c1ccccc1C2=O	primary mouse articular chondrocytes	Western blot, refers to: Phlpp2		25 µM, days 0-6 and 0-9	relative to: vehicle	protein level	50 to 70%
O=C(NC1CCCCC1)c1cccc(N2Cc3cnn(Cc4ccc(F)cc4)c3C2)c1	HEK293 expressing GluA1 and GluA2	glutamate excitotoxic cell death, CellTox Green		together with: glutamate		IC50	0.009 µM
O=C(N1CCCC1)n1cc(-c2ccc(-c3ccccc3)cc2)nn1	mouse T cells	N-terminal labeling proteomics, refers to: S100a6 N-terminal peptide		0.001 µM, 6 h	relative to: DMSO	SILAC ratio	1.22 and 1.09 and 0.96 and 1.05
O=C(C[Se]C(=O)c1cc2ccccc2s1)Nc1cccc(C(F)(F)F)c1	NCI60 CNS subpanel	cell growth		10 µM, 48 h, one-dose		mean growth percent	-87.5%
CNc1cncc(N2Cc3cnn(Cc4ccc(F)cc4)c3C2)n1	HEK293 expressing GluA1 and GluA2	glutamate excitotoxic cell death, CellTox Green		together with: glutamate		IC50	3 µM

For quick reference, copied from above:
SMILES	tested on	assay	test system	setting	scale	measurement	value
CN1CCCNC(=O)c2cccc(c2)C(=O)NCCCN(C)CCCNc2cccc3c2C(=O)c2cccc(c2C3=O)NCCC1	SAS	RNA-Seq, refers to: CCDC51 mRNA		1 µM, 6 h	relative to: untreated cells	log2 fold change	0.79
O=C(C[Se]C(=O)C12CC3CC(CC(C3)C1)C2)Nc1cccc(C(F)(F)F)c1	NCI60 melanoma subpanel	cell growth		10 µM, 48 h, one-dose		mean growth percent	-49.7%
O=C(C[Se]C(=O)c1cc2ccccc2[nH]1)Nc1cccc(C(F)(F)F)c1	NCI60 leukaemia subpanel	NCI60 five-dose screen				GI50	1.5 µM
C=C(NC(=O)c1csc(-c2ccc(NC(=O)CCCCCBr)cc2)n1)C(=O)NC(=C)C(=O)OC	H-MESO-1	cell viability, crystal violet		6 h exposure, 48 h total		EC50	0.96 µM
